Measurements from different studies.
A part holds a random share of what one study measured.

Sample 1
Target: TAR DNA-binding protein 43, full length, His tag (TARDBP, Homo sapiens, UniProt Q13148, residues 1-414)
Method: RNA Bind-n-Seq
Molecule type: RNA
Matrix: in vitro
Concentration: 20 nM
Notes: 6-mer, flanks averaged, single round
With: 150 mM KCl
Reference: input library
Direction: higher = stronger binding
Under “6-mer enrichment (R)”, `UUGUAA` is recorded as 0.655.
`GUCACU` — result for “6-mer enrichment (R)”: 0.645.
For `GUUACU`, “6-mer enrichment (R)” read 0.611.
Under “6-mer enrichment (R)”, `GCUUGC` is recorded as 0.808.
`CCACCU`: “6-mer enrichment (R)” 0.609.
`ACUCAA`: “6-mer enrichment (R)” 0.604.
`CAUUUA` — result for “6-mer enrichment (R)”: 0.594.
For `GUAGAU`, “6-mer enrichment (R)” read 0.868.
Under “6-mer enrichment (R)”, `UCAUUG` is recorded as 0.597.
`GUUCAC`: “6-mer enrichment (R)” 0.618.
For `AACGAA`, “6-mer enrichment (R)” read 0.698.
`UACCGU` — result for “6-mer enrichment (R)”: 0.61.
`UUACCC`: “6-mer enrichment (R)” 0.618.
`GCUGUA`: “6-mer enrichment (R)” 0.86.
`UUCGUC`: “6-mer enrichment (R)” 0.593.
`UCGGCU`: “6-mer enrichment (R)” 0.767.
`CAAACU`: “6-mer enrichment (R)” 0.595.
Under “6-mer enrichment (R)”, `AAACCC` is recorded as 0.604.
For `AGGUUA`, “6-mer enrichment (R)” read 0.72.
`GCUGCC`: “6-mer enrichment (R)” 0.836.
For `UGUUAC`, “6-mer enrichment (R)” read 0.641.
For `GACCUG`, “6-mer enrichment (R)” read 0.896.

Sample 2
Target: Sal-like protein 4, full length isoform A (SALL4, Homo sapiens, UniProt Q9UJQ4, residues 1-1053)
Chain of UniProt Q9UJQ4 (whole entry, looked up): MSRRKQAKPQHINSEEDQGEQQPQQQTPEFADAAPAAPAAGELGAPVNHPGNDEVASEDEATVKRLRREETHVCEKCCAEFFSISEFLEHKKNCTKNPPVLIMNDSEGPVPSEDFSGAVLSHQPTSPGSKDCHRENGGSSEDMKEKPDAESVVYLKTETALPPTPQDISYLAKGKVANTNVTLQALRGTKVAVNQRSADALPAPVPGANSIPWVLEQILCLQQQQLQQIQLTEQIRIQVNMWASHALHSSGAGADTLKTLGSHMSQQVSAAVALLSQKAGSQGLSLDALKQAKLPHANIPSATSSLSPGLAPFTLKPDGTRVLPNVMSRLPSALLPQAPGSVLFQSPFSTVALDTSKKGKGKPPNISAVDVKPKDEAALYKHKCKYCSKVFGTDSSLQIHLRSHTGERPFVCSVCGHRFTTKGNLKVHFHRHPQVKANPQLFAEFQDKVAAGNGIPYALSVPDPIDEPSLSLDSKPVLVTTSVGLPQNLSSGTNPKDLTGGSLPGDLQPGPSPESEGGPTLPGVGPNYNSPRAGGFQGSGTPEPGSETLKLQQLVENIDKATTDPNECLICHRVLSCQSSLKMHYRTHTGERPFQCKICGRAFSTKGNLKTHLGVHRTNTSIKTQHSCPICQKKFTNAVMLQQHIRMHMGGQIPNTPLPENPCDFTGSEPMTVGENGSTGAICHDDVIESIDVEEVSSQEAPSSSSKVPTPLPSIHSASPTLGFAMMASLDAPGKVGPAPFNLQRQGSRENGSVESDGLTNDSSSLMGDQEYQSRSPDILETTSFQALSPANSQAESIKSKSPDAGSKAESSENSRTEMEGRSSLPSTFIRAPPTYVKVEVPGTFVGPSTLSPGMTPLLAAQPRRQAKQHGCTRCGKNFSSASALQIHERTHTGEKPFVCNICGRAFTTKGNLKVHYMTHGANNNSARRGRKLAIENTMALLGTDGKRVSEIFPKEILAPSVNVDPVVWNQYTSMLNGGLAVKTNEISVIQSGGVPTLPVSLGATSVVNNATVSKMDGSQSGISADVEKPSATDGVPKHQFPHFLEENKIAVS
Method: universal PBM
Molecule type: double-stranded DNA, one strand shown
Matrix: in vitro
Concentration: 600 nM
Notes: 8-mer, flanks averaged, mean of replicates
Direction: higher = stronger binding
`CTGGGAGC` gave an E-score of -0.302.
`CGTCGCTA` has an E-score of -0.134.
The E-score of `ATGGATGG` is reported as -0.0156.
With `AGATAAAA` the E-score was 0.253.
`CACCCTGG` gave an E-score of -0.225.
With `CCATTTAC` the E-score was 0.078.
The E-score of `GCTTGTCC` is reported as -0.165.
The E-score of `ATCTCGAA` is reported as 0.0275.
For `CGTGGTTA`, the E-score was -0.0573.
`ACGCCCTA` gave an E-score of -0.156.
With `AACGGTGA` the E-score was -0.156.
`CCAGGCAG` gave an E-score of -0.301.
With `CGACGAAG` the E-score was -0.0629.
The E-score of `TCGAGTCA` is reported as -0.0839.
With `GAGTACTC` the E-score was -0.0717.
`GCAGTATA` gave an E-score of 0.0927.
With `CGGATCGA` the E-score was -0.213.
`CGGGCGCA` gave an E-score of -0.316.

Sample 3
Target: Histone acetyltransferase KAT6A, winged helix 2, GST fusion (KAT6A, Homo sapiens, UniProt Q92794, residues 85-181)
Method: protein binding microarray
Molecule type: double-stranded DNA, one strand shown
Matrix: in vitro
Concentration: not given
Notes: 8-mer, flanks averaged, mean of 2 arrays, mostly near background
Reference: not given
Direction: higher = stronger binding
Residues (chain): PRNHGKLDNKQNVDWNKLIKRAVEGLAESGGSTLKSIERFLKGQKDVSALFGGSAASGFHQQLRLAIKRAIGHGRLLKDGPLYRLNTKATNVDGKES
The E-score of `ACTCTCTG` is reported as -0.205.
For `ATCCGCTC`, the E-score was 0.0888.
`TATACGCA` has an E-score of 0.159.
`GCAAGGGC` gave an E-score of -0.0358.
The E-score of `GCCTGCCC` is reported as 0.112.
For `CTGAAGTA`, the E-score was 0.0614.
The E-score of `CGAGAACC` is reported as -0.0601.
For `GTGACCAA`, the E-score was -0.128.
For `CACAGAGA`, the E-score was -0.0652.
`GCGATCTA` has an E-score of 0.0234.
`AGCAGACA` gave an E-score of -0.0484.
`CAGACATC` gave an E-score of 0.0712.
For `CAATCGAG`, the E-score was -0.0671.
`AGAAGCTC` gave an E-score of -0.121.
With `ACCCCCTA` the E-score was -0.297.
With `ACCTTAGG` the E-score was -0.177.
`CTTAAGAA` has an E-score of 0.0711.
`GATTAATA` has an E-score of 0.044.
`CGCAATAG` gave an E-score of -0.14.

Sample 4
Target: RING finger protein unkempt homolog, zinc fingers 1-6, GST-SBP tag (UNK, Homo sapiens, UniProt Q9C0B0, residues 30-357)
Method: RNA Bind-n-Seq
Molecule type: RNA
Matrix: in vitro
Concentration: not given
Notes: RNA with constant flanks, ends assumed
Reference: input RNA pool
Direction: higher = stronger binding
Shared flanks, not repeated: GGGAGUUCUACAGUCCGACGAUC … CAACAGAGGAUUGAGCAUCA
Construct (chain): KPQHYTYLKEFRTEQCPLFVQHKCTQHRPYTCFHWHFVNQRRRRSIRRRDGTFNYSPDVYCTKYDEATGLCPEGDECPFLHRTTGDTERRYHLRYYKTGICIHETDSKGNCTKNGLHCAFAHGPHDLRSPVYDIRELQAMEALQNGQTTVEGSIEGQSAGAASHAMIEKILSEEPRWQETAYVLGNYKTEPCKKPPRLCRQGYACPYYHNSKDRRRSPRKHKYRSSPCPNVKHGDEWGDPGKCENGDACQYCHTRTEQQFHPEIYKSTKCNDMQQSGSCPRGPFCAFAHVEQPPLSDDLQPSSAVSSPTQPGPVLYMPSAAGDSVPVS
For `ACCCCCUUCGCCGGUACCGGGCUCUUCUUCGGAAAGAUGUCGGACACCGCAGUGGCUGACACCCGGCGCCUUAACUCGAAGCCCCAAGACCUGACCGACGCUUACGGGCCGCCCAGUAAC`, the bound/input enrichment was 0.118 ratio.
The bound/input enrichment of `GAUGAACCGGCCAUCAUUGUACAUCCAAAUUGGGCUGCAAAAAGUGGCAAGUUUGAUUGCCGCAUCAUGUCUUUGAGUGUCCUAUUGGACUACAGAUUAGAGGAUAAUAAAGAACAUUCA` is reported as 0.257 ratio.
`AGUAGCUCCGCCUGAAGAACUGUUUGCCAAUUCUGCUGAAGGAGAAUUCAGUGCACUCUGCCGCUAUCUAUCUUUACCCACAAAUUUGUUCCUGCUUUUCCAGGAAUAUUGGGAUACCAU` gave a bound/input enrichment of 0.304 ratio.
The bound/input enrichment of `GCAAGGCAGAGCCACCAGAAGAGGGCACCUAGUUUCCAUGACAAAUAUGGGAAUGCUAUAUCCGCAGGUGGAGCCAUCUUCUGUGUUUCUACAUGGACAUAUACAGCCACACAAAUUGGA` is reported as 0.286 ratio.
With `AGCAAAAAUCAAAUUAAAGUAGAUCUUGUAGAUGAGAAUUUUACAGAAUUAAGAGGAGAAACCGCAGGACCUCCAGACACACCGUAUGAAGGUGGAAGAUAUCAACUAGAGAUAAAAAUA` the bound/input enrichment was 2.86 ratio.
For `GUGGUGUGAACACGGCUCACUGCAGCCUCAACCUCCUGGACUCAGAGAUGUCGGCUUAUUUACCGGAAUUGCUUGAAGCCAGAGUCAUGGUGGAUGUCGGAAAGUGGCCCAUCUUCACUC`, the bound/input enrichment was 0.0705 ratio.
`CCAUCACAAAGAACCAAUGGCUCGUAACACCCAGCAGGGAAUAUGCUACCAAGACAAGAAUCCGGACUCACCGUGGGAAAACUGGACAAGAACUGAAAGAGGCAGCCUUGGAACCAUCAA` gave a bound/input enrichment of 0.179 ratio.
The bound/input enrichment of `AAUGCAGUAGAGGCCAUUCAUAGAGCUGUGGAAUUCAAUCCUCAUGUGCCAAAAUACCUACCCGAAAUGAAAAGCUUAAUCCUACCCCCAGAACAUAUCCUGAAGAGAGGAGACAGUGAA` is reported as 0.628 ratio.

Sample 5
Target: RNA binding protein fox-1 homolog 2, RRM domain, GST-SBP tag (RBFOX2, Homo sapiens, UniProt O43251-10, residues 100-194)
Method: RNA Bind-n-Seq
Molecule type: RNA
Matrix: in vitro
Concentration: 365 nM
Notes: natural RNA segment, single round, ends assumed
Reference: no-protein control
Direction: higher = stronger binding
Shared flanks, not repeated: GGGAGUUCUACAGUCCGACGAUC … UGGAAUUCUCGGGUGCCAA
Residues (chain): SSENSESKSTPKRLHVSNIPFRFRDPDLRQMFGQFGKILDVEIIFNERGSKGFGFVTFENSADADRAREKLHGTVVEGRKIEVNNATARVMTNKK
`CCAGCUCAGUCCAUUGGAAUAGUAUUAGGUUUUGGUUUUUUGUUGUAUUUCCCCCUUUCCACUGGGCCCUUCCAACACAAUGAAUGAAGGAAAUAUCAUUUAUUUAAGCA`: “RBNS enrichment (R)” 0.737.
For `CACAGGCUUGGAACUCAGGGAGAAGCUAUGGCUACCACAUGGGUCCACAAGGCAGAAGGGAUCACCGGUGGCAGUCACUCGCGUUUUGUGGAGUGUGGCAGGUGGACUUG`, “RBNS enrichment (R)” read 0.487.
Under “RBNS enrichment (R)”, `UGGGAACCAGCAGACUGCAUUCCUAAUCUUCAUUAUGCCUGAGACUUGUCUUACAAUGUUACCUUUAAGUGAAUCACAUAAUUGUCUUUGGAACUUGGUCUCCCAACACU` is recorded as 0.395.
`GGACAGCCUUUUCCCCAGGCCUCAGAGCAUUGCUCAUCCGUGCCAAACUGGGUAGGUGGAUUUGAGCGGAAAGACUCCCAAAAUGUGCCAAGAAUUUCCCAGUCCCAGGC` — result for “RBNS enrichment (R)”: 0.225.
Under “RBNS enrichment (R)”, `AUGAAGUGCACUGUUCUCUCUUCAUUACGGUCCUGUUUAAGAGCCCAGCUAGUCUAUCUGAGCUCUCGCCUCCAUCCUUGUUUUAAUCAUGCUUCUACAAGGUGAAGUGU` is recorded as 0.372.
For `CGUUGGUGAAGAACACACAUCGAUUCUGCACCUGGGGACCCAGAGCGAGAUGGGUUUGUUCGGUGCCAGCCGACCAAGAUUGACUAGUUUGUUGGACUUAAACGACGAUU`, “RBNS enrichment (R)” read 0.403.
`AAUUUCAAAGUAUAAAUAUAUUUAUUAAGUAGCGCUGCGGCUAAGAAGGAAGAGUGAGGGGUCUGUCCAUGGGGUGGCAGUGAUUUCACACCCGCCUUUCUUGAAUGGCU` — result for “RBNS enrichment (R)”: 0.706.
`UCUAGGCCAGUGCUUUACCACUUAGCUAUACCCAGUCCUGUGUUACCUUGCUUUUGUGAACACGUCACUGCAUAGGUUCUGAGAGGACCUGGCUGGGUUUAUUUAAGAGU` — result for “RBNS enrichment (R)”: 0.323.

Repeated from above (sample 1):
Under “6-mer enrichment (R)”, `GCUUGC` is recorded as 0.808.
For `AACGAA`, “6-mer enrichment (R)” read 0.698.
For `GUAGAU`, “6-mer enrichment (R)” read 0.868.
`UUACCC`: “6-mer enrichment (R)” 0.618.
For `AGGUUA`, “6-mer enrichment (R)” read 0.72.
`GCUGCC`: “6-mer enrichment (R)” 0.836.
Under “6-mer enrichment (R)”, `UCAUUG` is recorded as 0.597.
Under “6-mer enrichment (R)”, `UUGUAA` is recorded as 0.655.
`ACUCAA`: “6-mer enrichment (R)” 0.604.
For `GUUACU`, “6-mer enrichment (R)” read 0.611.
`UUCGUC`: “6-mer enrichment (R)” 0.593.
